Assay results pooled from the literature.
A part holds a random share of what one study measured. Several values in a cell are separate wells, animals, samples, runs or records.
Sequence of UniProt Q13131 (whole entry, looked up): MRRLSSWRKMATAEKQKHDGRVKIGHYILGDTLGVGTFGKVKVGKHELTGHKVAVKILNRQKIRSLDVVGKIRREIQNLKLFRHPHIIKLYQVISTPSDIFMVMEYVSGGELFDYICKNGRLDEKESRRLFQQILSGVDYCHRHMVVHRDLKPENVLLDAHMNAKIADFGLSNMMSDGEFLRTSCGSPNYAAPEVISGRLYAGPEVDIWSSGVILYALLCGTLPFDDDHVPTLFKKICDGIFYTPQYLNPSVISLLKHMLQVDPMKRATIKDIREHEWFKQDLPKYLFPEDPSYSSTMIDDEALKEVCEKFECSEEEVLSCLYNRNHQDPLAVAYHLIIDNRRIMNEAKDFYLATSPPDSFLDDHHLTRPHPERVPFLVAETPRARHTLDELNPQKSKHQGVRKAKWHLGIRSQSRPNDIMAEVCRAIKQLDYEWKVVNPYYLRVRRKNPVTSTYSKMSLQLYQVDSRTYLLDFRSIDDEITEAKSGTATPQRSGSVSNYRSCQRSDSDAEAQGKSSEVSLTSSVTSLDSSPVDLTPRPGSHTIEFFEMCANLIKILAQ
Sequence of UniProt Q9BX84 (whole entry, looked up): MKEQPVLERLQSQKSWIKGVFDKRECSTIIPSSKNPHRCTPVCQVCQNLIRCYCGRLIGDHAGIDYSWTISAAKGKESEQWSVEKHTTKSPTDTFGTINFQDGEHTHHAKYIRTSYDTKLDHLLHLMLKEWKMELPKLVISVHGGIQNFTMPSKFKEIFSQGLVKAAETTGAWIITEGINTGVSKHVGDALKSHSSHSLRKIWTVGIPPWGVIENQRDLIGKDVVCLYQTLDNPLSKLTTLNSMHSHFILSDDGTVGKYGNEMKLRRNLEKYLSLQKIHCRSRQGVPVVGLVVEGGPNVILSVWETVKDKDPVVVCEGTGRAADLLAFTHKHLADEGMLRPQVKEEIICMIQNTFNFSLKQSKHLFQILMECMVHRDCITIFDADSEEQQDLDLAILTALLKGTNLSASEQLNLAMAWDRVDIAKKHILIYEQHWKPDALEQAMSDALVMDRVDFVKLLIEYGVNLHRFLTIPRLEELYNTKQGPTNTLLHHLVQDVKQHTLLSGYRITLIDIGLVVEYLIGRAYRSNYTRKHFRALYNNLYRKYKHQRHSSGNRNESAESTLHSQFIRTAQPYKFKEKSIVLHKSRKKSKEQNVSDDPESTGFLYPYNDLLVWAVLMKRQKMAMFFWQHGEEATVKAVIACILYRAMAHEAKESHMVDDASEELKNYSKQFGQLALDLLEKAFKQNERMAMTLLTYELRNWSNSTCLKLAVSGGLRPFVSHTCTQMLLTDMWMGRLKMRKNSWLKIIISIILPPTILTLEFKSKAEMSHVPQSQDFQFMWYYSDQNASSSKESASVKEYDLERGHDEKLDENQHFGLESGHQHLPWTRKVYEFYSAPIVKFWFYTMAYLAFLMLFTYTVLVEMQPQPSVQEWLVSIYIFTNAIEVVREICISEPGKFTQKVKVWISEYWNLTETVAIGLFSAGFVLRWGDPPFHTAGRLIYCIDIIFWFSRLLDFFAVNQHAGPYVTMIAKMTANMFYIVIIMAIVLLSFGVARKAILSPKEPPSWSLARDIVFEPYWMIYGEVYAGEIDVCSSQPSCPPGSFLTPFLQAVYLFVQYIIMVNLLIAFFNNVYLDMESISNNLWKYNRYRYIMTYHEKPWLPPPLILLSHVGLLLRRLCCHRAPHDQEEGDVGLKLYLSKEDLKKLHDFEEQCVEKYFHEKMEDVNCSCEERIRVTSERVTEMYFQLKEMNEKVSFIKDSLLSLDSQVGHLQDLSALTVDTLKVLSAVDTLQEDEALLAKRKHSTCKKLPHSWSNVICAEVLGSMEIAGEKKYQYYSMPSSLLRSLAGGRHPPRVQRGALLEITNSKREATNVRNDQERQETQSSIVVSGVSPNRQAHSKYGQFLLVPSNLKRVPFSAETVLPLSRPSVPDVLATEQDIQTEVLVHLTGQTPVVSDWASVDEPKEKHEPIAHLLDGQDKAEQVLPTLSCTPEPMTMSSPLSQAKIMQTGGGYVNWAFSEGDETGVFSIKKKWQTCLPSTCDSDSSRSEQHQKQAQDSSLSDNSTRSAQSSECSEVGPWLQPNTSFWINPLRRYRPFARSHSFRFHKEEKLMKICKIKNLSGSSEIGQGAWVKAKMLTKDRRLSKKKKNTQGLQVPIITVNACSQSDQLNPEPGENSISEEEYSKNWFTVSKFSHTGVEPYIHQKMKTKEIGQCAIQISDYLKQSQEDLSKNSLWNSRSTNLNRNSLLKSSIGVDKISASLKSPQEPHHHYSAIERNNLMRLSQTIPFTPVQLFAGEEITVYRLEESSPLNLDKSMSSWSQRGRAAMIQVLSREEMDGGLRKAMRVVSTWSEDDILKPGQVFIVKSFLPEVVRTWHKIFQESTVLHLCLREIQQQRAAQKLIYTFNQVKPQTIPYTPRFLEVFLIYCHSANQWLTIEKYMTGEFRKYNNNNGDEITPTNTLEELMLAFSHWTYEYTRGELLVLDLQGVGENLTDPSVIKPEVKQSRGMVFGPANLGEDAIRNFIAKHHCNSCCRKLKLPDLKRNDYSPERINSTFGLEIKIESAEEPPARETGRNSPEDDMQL
Sequence of UniProt Q9BRS2 (whole entry, looked up): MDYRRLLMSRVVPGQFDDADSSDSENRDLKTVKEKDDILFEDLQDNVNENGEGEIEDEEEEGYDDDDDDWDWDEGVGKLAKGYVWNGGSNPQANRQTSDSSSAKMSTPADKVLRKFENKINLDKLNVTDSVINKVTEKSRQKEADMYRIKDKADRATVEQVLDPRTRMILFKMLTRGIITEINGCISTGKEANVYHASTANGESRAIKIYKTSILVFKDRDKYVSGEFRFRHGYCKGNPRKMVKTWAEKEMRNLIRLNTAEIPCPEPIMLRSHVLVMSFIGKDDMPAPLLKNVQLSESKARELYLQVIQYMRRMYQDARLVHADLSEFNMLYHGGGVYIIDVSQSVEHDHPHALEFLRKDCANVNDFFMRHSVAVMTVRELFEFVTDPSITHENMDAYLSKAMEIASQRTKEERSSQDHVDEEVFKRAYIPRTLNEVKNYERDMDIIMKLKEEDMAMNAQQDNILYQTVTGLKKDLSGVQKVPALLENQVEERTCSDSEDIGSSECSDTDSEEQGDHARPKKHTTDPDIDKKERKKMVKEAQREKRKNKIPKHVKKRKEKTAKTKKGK
Sequence of UniProt Q86UE8 (whole entry, looked up): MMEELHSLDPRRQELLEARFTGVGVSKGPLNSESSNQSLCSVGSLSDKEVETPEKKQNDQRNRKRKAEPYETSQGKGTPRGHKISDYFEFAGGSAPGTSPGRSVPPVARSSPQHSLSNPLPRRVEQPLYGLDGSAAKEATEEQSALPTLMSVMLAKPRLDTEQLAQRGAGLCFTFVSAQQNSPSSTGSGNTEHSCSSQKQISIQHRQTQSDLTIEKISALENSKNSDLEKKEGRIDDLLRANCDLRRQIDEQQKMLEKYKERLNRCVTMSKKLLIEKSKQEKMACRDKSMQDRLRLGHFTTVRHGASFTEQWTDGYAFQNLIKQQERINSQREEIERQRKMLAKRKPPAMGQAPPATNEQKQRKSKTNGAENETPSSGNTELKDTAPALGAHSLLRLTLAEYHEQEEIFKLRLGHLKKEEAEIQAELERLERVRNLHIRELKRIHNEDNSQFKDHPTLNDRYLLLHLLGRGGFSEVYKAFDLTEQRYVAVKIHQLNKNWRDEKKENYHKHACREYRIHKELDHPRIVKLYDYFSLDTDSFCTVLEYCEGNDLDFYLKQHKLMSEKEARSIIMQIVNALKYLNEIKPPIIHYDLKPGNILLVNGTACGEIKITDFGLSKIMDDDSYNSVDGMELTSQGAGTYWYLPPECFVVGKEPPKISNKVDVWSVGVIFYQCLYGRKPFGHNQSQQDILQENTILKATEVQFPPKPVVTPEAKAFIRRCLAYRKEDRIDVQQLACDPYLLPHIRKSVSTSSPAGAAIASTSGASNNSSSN
Sequence of UniProt Q92772 (whole entry, looked up): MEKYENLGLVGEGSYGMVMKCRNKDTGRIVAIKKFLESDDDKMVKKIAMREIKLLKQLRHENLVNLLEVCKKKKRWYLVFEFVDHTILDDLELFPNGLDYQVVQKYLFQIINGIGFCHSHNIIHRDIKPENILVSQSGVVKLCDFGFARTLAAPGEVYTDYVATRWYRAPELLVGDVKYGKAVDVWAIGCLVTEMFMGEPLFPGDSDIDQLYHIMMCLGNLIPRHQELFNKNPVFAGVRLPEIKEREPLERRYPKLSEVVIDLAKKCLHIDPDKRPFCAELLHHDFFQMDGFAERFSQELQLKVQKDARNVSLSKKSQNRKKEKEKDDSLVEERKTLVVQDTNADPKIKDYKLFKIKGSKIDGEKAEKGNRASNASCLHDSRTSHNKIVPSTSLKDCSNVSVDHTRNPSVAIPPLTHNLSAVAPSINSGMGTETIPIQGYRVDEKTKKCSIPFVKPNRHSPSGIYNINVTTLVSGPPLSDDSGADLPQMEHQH
Sequence of UniProt P19525 (whole entry, looked up): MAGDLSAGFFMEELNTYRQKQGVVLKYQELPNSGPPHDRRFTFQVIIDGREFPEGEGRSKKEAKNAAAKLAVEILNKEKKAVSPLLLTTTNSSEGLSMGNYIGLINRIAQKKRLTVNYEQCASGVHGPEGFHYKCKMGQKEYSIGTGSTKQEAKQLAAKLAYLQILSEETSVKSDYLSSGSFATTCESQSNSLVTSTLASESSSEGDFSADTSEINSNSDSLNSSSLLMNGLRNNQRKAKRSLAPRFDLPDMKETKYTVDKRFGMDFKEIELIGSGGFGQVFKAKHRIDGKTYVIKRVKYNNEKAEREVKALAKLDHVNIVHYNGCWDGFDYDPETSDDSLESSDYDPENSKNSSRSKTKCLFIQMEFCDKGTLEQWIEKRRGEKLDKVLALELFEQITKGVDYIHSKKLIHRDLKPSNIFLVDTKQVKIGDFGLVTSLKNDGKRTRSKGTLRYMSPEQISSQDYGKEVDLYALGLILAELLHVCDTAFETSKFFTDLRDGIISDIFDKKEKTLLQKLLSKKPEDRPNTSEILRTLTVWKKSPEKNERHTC

Series 1
Host: human
Sample: microsomes or S9
Concentration: 2 µM
Time: 0.5 h
For Cc1noc(C23CC(CN2C(=O)Nc2cc(C)c4cn[nH]c4c2)C3)n1, the remaining compound was 91.5%.
For CC(C)CC(O)C1CCN(C(=O)CCCn2cncn2)CC1 (stereo not shown), the remaining compound was 89.3%.
Cc1ccc(S(=O)(=O)N2OC(c3ccc(Cl)cc3)(c3ccc(Cl)cc3)C=C2c2ccccc2)cc1 has a remaining compound of 69.9%.
The remaining compound of COCCn1c(C(=O)OC)cc2c(=O)n(C)c(=O)n(C)c21 is reported as 0%.
For c1ccc(C(Nc2ccc3nccnc3n2)c2ccccc2)cc1, the remaining compound was 8.45%.
C/C=C/Cn1c(C(=O)c2cc(C)cc(C)c2)c(CC)c(=O)[nH]c1=O has a remaining compound of 28.2%.
The remaining compound of CCc1noc(CN(CC)C(=O)C2CNCCO2)n1 (stereo not shown) is reported as 85.4%.
c1ccc(-c2nnc3n2CCN(c2ccc4nccnc4n2)C3)cc1 has a remaining compound of greater than 100%.

Series 2
Compound: COc1cc(-c2cn(C3CCc4c(F)cccc4N(CC(F)(F)F)C3=O)nn2)ccc1-n1cnc(C)c1 (stereo not shown)
Concentration: 1 µM
MAP3K12 (Homo sapiens, UniProt Q12852); cell-free assay, competition with immobilised ligand — remaining binding: 100%.
It gave 100% for remaining binding (Tyrosine-protein kinase ABL1, phosphorylated (ABL1, Homo sapiens, UniProt P00519, H396P); cell-free assay, competition with immobilised ligand).
It gave 100% for remaining binding (CDC42BPG (Homo sapiens, UniProt Q6DT37); competition binding).
It gave 100% for remaining binding (TESK1 (Homo sapiens, UniProt Q15569); cell-free assay, competition with immobilised ligand).
For RIOK1 (Homo sapiens, UniProt Q9BRS2); cell-free assay, competition with immobilised ligand: remaining binding read 96%.
For NTRK3 (Homo sapiens, UniProt Q16288); cell-free assay, competition with immobilised ligand: remaining binding read 95%.
For NEK2 (Homo sapiens, UniProt P51955); cell-free assay, competition with immobilised ligand: remaining binding read 100%.
SLK (Homo sapiens, UniProt Q9H2G2); cell-free assay, competition with immobilised ligand — remaining binding: 100%.
HIPK4 (Homo sapiens, UniProt Q8NE63); cell-free assay, competition with immobilised ligand — remaining binding: 100%.
The remaining binding was 100% (EPHA4 (Homo sapiens, UniProt P54764); cell-free assay, competition with immobilised ligand).
The remaining binding was 100% (PRKAA1 (Homo sapiens, UniProt Q13131); cell-free assay, competition with immobilised ligand).
For CDKL2 (Homo sapiens, UniProt Q92772); cell-free assay, competition with immobilised ligand: remaining binding read 67%.
It gave 57% for remaining binding (LRRK2 (Homo sapiens, UniProt Q5S007); cell-free assay, competition with immobilised ligand).
The remaining binding was 100% (TRPM6 (Homo sapiens, UniProt Q9BX84); cell-free assay, competition with immobilised ligand).
The remaining binding was 89% (PRKCQ (Homo sapiens, UniProt Q04759); cell-free assay, competition with immobilised ligand).
It gave 100% for remaining binding (DYRK2 (Homo sapiens, UniProt Q92630); cell-free assay, competition with immobilised ligand).
The remaining binding was 100% (CDKL3 (Homo sapiens, UniProt Q8IVW4); cell-free assay, competition with immobilised ligand).
The remaining binding was 100% (ULK1 (Homo sapiens, UniProt O75385); cell-free assay, competition with immobilised ligand).

Series 3
SMILES: C=CC(=O)N1CCC([C@@H]2CCNc3c(C(N)=O)c(-c4ccc(Oc5ccccc5)cc4)nn32)CC1
Concentration: 1 µM
The inhibition was 4% (TLK2 (Homo sapiens, UniProt Q86UE8); enzyme activity, inhibitor).
For MAPKAPK5 (Homo sapiens, UniProt Q8IW41); enzyme activity, inhibitor: inhibition read 17%.
It gave 25% for inhibition (EIF2AK2 (Homo sapiens, UniProt P19525); enzyme activity, inhibitor).
PRKAA1 (Homo sapiens, UniProt Q13131); cell-free assay — inhibition: 0%.
It gave 0% for inhibition (FLT3 (Homo sapiens, UniProt P36888, R834Q); enzyme activity, inhibitor).
For MET (Homo sapiens, UniProt P08581, M1250T); cell-free assay: inhibition read 11%.

Series 4
SMILES: CN1CCC[C@H]1COc1nc2c(c(N3CCN(S(C)(=O)=O)[C@@H](CC#N)C3)n1)CCN(c1cccc3cccc(Cl)c13)C2
Observed: binding
Action: competitor
Technique: NanoBRET
Cell line: HEK293
KRAS Q61L: GTPase KRas (KRAS, Homo sapiens, UniProt P01116, Q61L)
The normalized BRET was 14.1% and 19.7% and 15.8% (KRAS Q61L; 33.3 µM).
For GTPase KRas (KRAS, Homo sapiens, UniProt P01116, G13D); 15.2 nM: normalized BRET read 100% and 92.3% and 92%.
KRAS Q61L; 45.7 nM — normalized BRET: 100% and 87.4% and 92.6%.
KRAS Q61L; 412 nM — normalized BRET: 64.5% and 76.3% and 66.5%.
For GTPase KRas (KRAS, Homo sapiens, UniProt P01116, Q61H); 412 nM: normalized BRET read 59.6% and 66.7% and 73.6%.

For quick reference, copied from above (series 3):
The inhibition was 4% (TLK2 (Homo sapiens, UniProt Q86UE8); enzyme activity, inhibitor).
It gave 0% for inhibition (FLT3 (Homo sapiens, UniProt P36888, R834Q); enzyme activity, inhibitor).
